Values quoted from earlier work as cited in several papers.
Numbers after ± are the reported error. Converted amounts (≈) assume the structure as drawn.
Ahr: Aryl hydrocarbon receptor (Ahr, Rattus norvegicus, UniProt P41738)

COc1cc(Cc2cnc(N)nc2N)cc(OC)c1OC  Km (Cytochrome P450 2C9 (CYP2C9, Homo sapiens, UniProt P11712); substrate): 428 to 1330 µM
Nc1ncnc2c1ncn2[C@@H]1O[C@H](COP(=O)(O)OP(=O)(O)OP(=O)(O)O)[C@@H](O)[C@H]1O  activation (P2X purinoceptor 2 (P2RX2, Homo sapiens, UniProt Q9UBL9); agonist; 0.2 µM): < 10%
O=[N+]([O-])O  Km (napA (Campylobacter jejuni, UniProt Q9PPD9); reduction, substrate): 3.4 µM
Cc1c2ccccc2cc2c1ccc1ccccc12  relative potency (Ahr; 50% effect level; reference: benzo[a]pyrene): 1.4
CCCCCN1C[C@H](O)[C@@H](O)[C@H](O)[C@@H]1CO  inhibition (maltase; concentration not given): inactive
COc1c(N2C[C@@H]3CCCN[C@@H]3C2)c(F)cc2c(=O)c(C(=O)O)cn(C3CC3)c12  Km (UDP-glucuronosyltransferase 1A9 (UGT1A9, Homo sapiens, UniProt O60656); substrate): 2100 µM
N#Cc1ccc2[nH]cc(CCCCN3CCN(c4ccc5oc(C(N)=O)cc5c4)CC3)c2c1  Hill coefficient (Sodium-dependent serotonin transporter (SLC6A4, Homo sapiens, UniProt P31645); serotonin uptake, inhibitor; added: [3H]5-HT): 1.82
O=C(c1cccnc1-c1ccncc1)N1CCC(O)(Cc2ccccc2)CC1  enzyme occupancy (cholesterol 24-hydroxylase; PET; monkey, brain; 0.89 mg/kg): 100%
O=C(CCCN1CC=C(n2c(=O)[nH]c3ccccc32)CC1)c1ccc(F)cc1  activity outcome (HepG2; mitochondrial membrane potential; concentration not given, Tox21): inactive
C=CC(=O)N1CCC(C(=O)NCC(=O)N2CCN(c3nc(-c4cnc(N)nc4C(F)F)nc(N4CCOCC4)n3)CC2)CC1  remaining activity (Phosphatidylinositol 4,5-bisphosphate 3-kinase catalytic subunit alpha isoform (PIK3CA, Homo sapiens, UniProt P42336, H1047L); kinase activity; 1 µM): 0.45%
NCCN[C@H]1CC[C@H](CC(=O)N[C@H]2Cc3cccc(C(=O)O)c3OB2O)CC1  inhibition (Metallo-beta-lactamase type 2 (Serratia marcescens, UniProt P52699); concentration not given): no inhibition
C[N+](C)(C)CC(=O)O  binding enthalpy (ΔH) (Methyl-accepting chemotaxis protein, ligand-binding domain (Pectobacterium atrosepticum, UniProt Q6D515); isothermal titration calorimetry; concentration not given): -1.6 ± 0.2 kcal/mol
O=C(Nc1nc2ccccc2[nH]1)c1ccccc1  response (SUMO1/sentrin specific peptidase 7; 5 µM, PubChem AID 434973): 93%
Cc1cccc2cc3ccc4cccc5ccc(c12)c3c45  relative potency (Ahr; 50% effect level; reference: benzo[a]pyrene): 1.2
Nc1cc(C(F)(F)F)c(-c2nc(N3CCOCC3)nc(N3CCOCC3)n2)cn1  remaining binding (Macrophage colony-stimulating factor 1 receptor, autoinhibited (CSF1R, Homo sapiens, UniProt P07333); KinomeScan competition binding; 10 µM): 2.8%
C[C@H](NC[C@H](O)CP(=O)(O)CC1CCCCC1)c1ccc(Cl)c(Cl)c1  Hill coefficient (Gamma-aminobutyric acid type B receptor subunit 1 (GABBR1, Homo sapiens, UniProt Q9UBS5); historical reference value): 1
Cc1c(C#N)cccc1[C@@H](C)Nc1nnc(C)c2cnc(N3CCOCC3)cc12  IC50 (NCI-H1435; 3D cell viability; 14 d): > 1000 nM
CCN(c1cc(-c2ccc(CN3CCOCC3)cc2)cc(C(=O)NCc2c(C)cc(C)[nH]c2=O)c1C)C1CCOCC1  inhibition (Histone-lysine N-methyltransferase SMYD3 (SMYD3, Homo sapiens, UniProt Q9H7B4); enzyme activity, inhibitor; 1 µM): 0 ± 5%
CC1=CC(=O)CC(C)(C)C1=O  conversion (YqjM (Old Yellow Enzyme homolog); ene-reductase biotransformation, substrate): 86 to 96%
O=C(Nc1ccc(C(F)(F)F)cc1)N1CCC2(CC1)C(=O)N(c1ccccn1)[C@H]2c1ccccc1  IC50 (TRPV1; calcium flux, antagonist; HEK293; added: capsaicin): 13 nM
CC1(C)S[C@@H]2[C@H](NC(=O)[C@H](N)c3ccccc3)C(=O)N2[C@H]1C(=O)O  MIC (Pseudomonas aeruginosa; clinical isolate RKI-No_402/14): > 16 mg/L
CC(C)(O/N=C(\C(=O)N[C@@H]1C(=O)N2C(C(=O)[O-])=C(C[N+]3(CCNC(=O)c4ccc(O)c(O)c4Cl)CCCC3)CS[C@H]12)c1csc(N)n1)C(=O)O  Km (AmpC beta-lactamase (Enterobacter); hydrolysis, substrate): 49.8 µM
Cc1c(CN2CCN(C(=O)[C@H](C)O)CC2)sc2c(N3CCOCC3)nc(-c3cnc(N)nc3)nc12  remaining binding (Phosphatidylinositol 4-kinase beta (PI4KB, Homo sapiens, UniProt Q9UBF8); KinomeScan competition binding; 10 µM): 100%
Nc1cc(C(F)(F)F)c(-c2nc(N3CCOCC3)nc(N3CCOCC3)n2)cn1  remaining activity (Serine/threonine-protein kinase NIM1 (NIM1K, Homo sapiens, UniProt Q8IY84); enzyme activity; 10 µM; reference: untreated): 92%
CNC(C)C1CCC(N)C(OC2C(N)CC(N)C(OC3OCC(C)(O)C(NC)C3O)C2O)O1 (stereo not shown)  MIC (Pseudomonas aeruginosa; clinical isolate RKI-No_402/14): 8 mg/L (≈ 16.8 µM)
O=C1CC[C@H](N2Cc3cc(N4CCN(CC5CCN(c6ccc([C@@H]7c8ccc(O)cc8CC[C@@H]7c7ccccc7)cc6)CC5)CC4)ccc3C2=O)C(=O)N1  average degradation (Estrogen receptor (ESR1, Homo sapiens, UniProt P03372); degrader; human patients, paired tumour biopsies; 200 mg once daily): 71%
CCCC[C@@H](NC(=O)[C@@H](Cc1cn(C(=O)OC)c2ccccc12)NC(=O)[C@H](CC(C)(C)C)NC(=O)N1[C@H](C)CCC[C@@H]1C)C(=O)O  selectivity ratio (Endothelin receptor type B (EDNRB, Homo sapiens, UniProt P24530); human receptors; reference: ETB over ETA): 100 fold
CCOC(=O)C1=C(C)NC(C)=C(C(=O)OC)C1c1cccc([N+](=O)[O-])c1 (stereo not shown)  Hill coefficient (Voltage-dependent L-type calcium channel subunit alpha-1C (Cacna1c, Rattus norvegicus, UniProt P22002); historical reference value): 0.9
CNC(=O)[C@H]1S[C@@H](n2cnc3c(NCc4cccc(I)c4)nc(Cl)nc32)[C@H](O)[C@@H]1O  activation (Adenosine receptor A3 (ADORA3, Homo sapiens, UniProt P0DMS8); agonist; concentration not given; reference: known A3AR agonist): 114 ± 9%
COc1cc2nc(N3CCN(C(=O)c4ccco4)CC3)nc(N)c2cc1OC  Hill coefficient (Alpha-1A adrenergic receptor (Adra1a, Rattus norvegicus, UniProt P43140); binding): 0.9
CC(C)[C@@H](CN1CC[C@@](C)(c2cccc(O)c2)[C@@H](C)C1)NC(=O)[C@H]1Cc2ccc(O)cc2CN1  Ke (delta opioid receptor (human); antagonist; added: DPDPE): 76.4 ± 2.7 nM
NCCc1c[nH]c2ccc(O)cc12  affinity reduction (5-HT2A receptor Y7.43A; concentration not given; reference: wild type receptor): 10 fold
O=[N+]([O-])c1cc(C(F)(F)F)ccc1NCc1ccco1  koff (Endothelial PAS domain-containing protein 1, PAS-B domain (EPAS1, Homo sapiens, UniProt Q99814); binding; PAS-B domain, wild type): 2.5 ± 0.1 s⁻¹
Cc1nc(NC(=O)N2CCC[C@H]2C(N)=O)sc1-c1ccnc(C(C)(C)C(F)(F)F)c1  remaining binding (Phosphatidylinositol 3-kinase C2 domain-containing subunit gamma (PIK3C2G, Homo sapiens, UniProt O75747); KinomeScan competition binding; 10 µM): 9.6%
O=C(c1ccc(F)cc1)C1CCN(CCn2c(=O)[nH]c3ccccc3c2=O)CC1  Hill coefficient (5-hydroxytryptamine receptor 2B (HTR2B, Homo sapiens, UniProt P41595); historical reference value): 0.6
COc1ccccc1Oc1cccc(CN2CCC(NC(=O)C3CC(=O)Nc4ccccc43)CC2)c1 (stereo not shown)  EC50 (human CCR8 V109A mutant (TM3); IP accumulation, agonist): 33 nM
O=C(Nc1cccc2cnccc12)NC1CCc2ccccc2C1Cc1ccccc1 (stereo not shown)  IC50 (TRPV1; calcium flux, antagonist; HEK293; added: capsaicin): 20 nM
CC(=O)N[C@@H](COP(=O)(O)O)C(=O)N1CCC[C@H]1C(=O)N[C@@H](C)C(=O)N[C@@H](Cc1ccccc1)C(N)=O  −TΔS (Breast cancer type 1 susceptibility protein, tandem BRCT domains (BRCA1, Homo sapiens, UniProt P38398); isothermal titration calorimetry): 8.8 ± 1.4 kcal/mol
CC1=CC(=O)N(c2ccccc2)C1=O  conversion (Old Yellow Enzyme 1; substrate): > 99%
O=C(CCCCCCc1ccccc1)c1ncc(-c2ccccn2)o1  binding (cannabinoid CB1 receptor; concentration not given): no binding
NCCC[C@H](N)C(=O)O  Km (ornithine aminotransferase (Toxoplasma gondii, UniProt S8EY38); substrate turnover, substrate): 6900 ± 300 µM
Cc1cc(Nc2ncc(Cl)c(Nc3ccccc3S(=O)(=O)C(C)C)n2)c(OC(C)C)cc1C1CCNCC1  activity outcome (HepG2; mitochondrial membrane potential; concentration not given, Tox21): inactive
Cc1cc(NC(=O)c2cccc(NC(=O)/C=C/CN(C)C)c2)ccc1Nc1nccc(-c2cccnc2)n1  remaining activity (Myosin light chain kinase 2, skeletal/cardiac muscle (MYLK2, Homo sapiens, UniProt Q9H1R3); enzyme activity, inhibitor; 1 µM; reference: vehicle): 13%

A few entries again:
O=C1CC[C@H](N2Cc3cc(N4CCN(CC5CCN(c6ccc([C@@H]7c8ccc(O)cc8CC[C@@H]7c7ccccc7)cc6)CC5)CC4)ccc3C2=O)C(=O)N1  average degradation (Estrogen receptor (ESR1, Homo sapiens, UniProt P03372); degrader; human patients, paired tumour biopsies; 200 mg once daily): 71%
O=[N+]([O-])c1cc(C(F)(F)F)ccc1NCc1ccco1  koff (Endothelial PAS domain-containing protein 1, PAS-B domain (EPAS1, Homo sapiens, UniProt Q99814); binding; PAS-B domain, wild type): 2.5 ± 0.1 s⁻¹
Cc1cc(NC(=O)c2cccc(NC(=O)/C=C/CN(C)C)c2)ccc1Nc1nccc(-c2cccnc2)n1  remaining activity (Myosin light chain kinase 2, skeletal/cardiac muscle (MYLK2, Homo sapiens, UniProt Q9H1R3); enzyme activity, inhibitor; 1 µM; reference: vehicle): 13%
C[N+](C)(C)CC(=O)O  binding enthalpy (ΔH) (Methyl-accepting chemotaxis protein, ligand-binding domain (Pectobacterium atrosepticum, UniProt Q6D515); isothermal titration calorimetry; concentration not given): -1.6 ± 0.2 kcal/mol
CC1(C)S[C@@H]2[C@H](NC(=O)[C@H](N)c3ccccc3)C(=O)N2[C@H]1C(=O)O  MIC (Pseudomonas aeruginosa; clinical isolate RKI-No_402/14): > 16 mg/L
